Measurements of several laboratories.
Numbered parts are unrelated; each lists some results of a single study. Changes are numbered by the printed parent chain.

Block 1 — technique: DHFR PCA, deep sequencing; matrix: yeast; together with: (+)-ABA 4.8 µM; reference: wild-type fitted maximum; direction: higher = stronger binding
Target: ABI1, truncated, D143A, DHFR fusion (Arabidopsis thaliana)
Notes: methotrexate growth selection, single substitutions
Starting sequence: PYL1, truncated, DHFR fusion (Arabidopsis thaliana); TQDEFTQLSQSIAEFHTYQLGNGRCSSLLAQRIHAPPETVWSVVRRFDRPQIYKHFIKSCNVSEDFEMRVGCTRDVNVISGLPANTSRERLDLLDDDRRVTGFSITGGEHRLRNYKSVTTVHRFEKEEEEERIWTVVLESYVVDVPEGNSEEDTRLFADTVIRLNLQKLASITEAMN; partner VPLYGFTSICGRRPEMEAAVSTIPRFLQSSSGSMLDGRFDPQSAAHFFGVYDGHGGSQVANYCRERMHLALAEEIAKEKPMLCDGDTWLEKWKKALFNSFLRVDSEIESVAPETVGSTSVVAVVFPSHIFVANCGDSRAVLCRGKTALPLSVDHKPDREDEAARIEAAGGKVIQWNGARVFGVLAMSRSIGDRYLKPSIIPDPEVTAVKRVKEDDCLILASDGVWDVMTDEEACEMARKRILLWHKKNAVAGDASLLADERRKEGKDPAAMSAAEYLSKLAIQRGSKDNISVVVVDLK
Variant	relative binding score [%]
A175I	57.1
T154L	0.0154
Q31A	-0.499
I57G	-1.5
V44C	23.7
T173G	15.8
S80H	15.2
M68F	52.2
Y18D	16.3
C72G	32.9
F124S	48.2
D75P	14.7
I57C	6.25
Y53M	5.06
D144Q	5.89
E14W	5.67

Block 2 — target: CCND2, cyclin fold, Cln2 fusion (human); technique: yeast growth competition, sequencing; matrix: yeast; notes: weak parent motif; reference: not given; direction: higher = stronger binding
Starting sequence: HASPIN docking peptide (human); ASLRSVLFGLMNS
Variant	normalised enrichment score
S5A	-0.383
V6A	-0.114
L7A	0.0102
R4A	-1.08
L10A	-0.147
S2A	-0.882

Block 3 — technique: protein binding microarray; molecule type: double-stranded DNA, one strand shown; matrix: in vitro; concentration: not given; reference: not given; direction: higher = stronger binding
Target: Histone acetyltransferase KAT6A, both winged helices, GST fusion (KAT6A, Homo sapiens, UniProt Q92794, residues 1-181)
Notes: 8-mer, flanks averaged, mean of 2 arrays, mostly near background
Target sequence (chain): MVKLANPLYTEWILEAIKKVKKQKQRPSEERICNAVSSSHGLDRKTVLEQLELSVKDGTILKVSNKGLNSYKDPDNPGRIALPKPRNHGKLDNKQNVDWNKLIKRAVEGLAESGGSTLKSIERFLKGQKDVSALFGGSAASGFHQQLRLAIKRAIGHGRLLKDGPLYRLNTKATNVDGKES
Oligonucleotide	E-score
AACCAACA	-0.115
CTGCCACA	-0.102
GACAAACA	0.024
GCTTCACC	0.0214
AGTTCCAT	-0.0761
CGCAATAA	0.186
GTGGGGTA	-0.0445
AGCAATGG	-0.205
ACCTCTAG	-0.0956
TACTGATA	0.000695
CATAGGTC	-0.137
TATTACAA	-0.0209
AGGTGGAT	-0.209
GGCAGCAC	-0.0541
AGTTCCAG	-0.0521
GTGTCTTA	-0.125
CCTGTGAA	-0.0941
ATTGTCTC	-0.082
ATCCTTTG	-0.0679
CCAGATAC	-0.121
ACTCCTAT	-0.238
ACGATCGA	-0.0252
ATGGAGAG	-0.232
ATAGAACG	0.0989
CAGGATAC	-0.0901

Block 4 — technique: RNA Bind-n-Seq; molecule type: RNA; matrix: in vitro; concentration: 100 nM; reference: input RNA pool; direction: higher = stronger binding
Target: RING finger protein unkempt homolog, zinc fingers 1-6, SBP tag (UNK, Homo sapiens, UniProt Q9C0B0, residues 30-357)
Chain of UniProt Q9C0B0 (30-357, looked up): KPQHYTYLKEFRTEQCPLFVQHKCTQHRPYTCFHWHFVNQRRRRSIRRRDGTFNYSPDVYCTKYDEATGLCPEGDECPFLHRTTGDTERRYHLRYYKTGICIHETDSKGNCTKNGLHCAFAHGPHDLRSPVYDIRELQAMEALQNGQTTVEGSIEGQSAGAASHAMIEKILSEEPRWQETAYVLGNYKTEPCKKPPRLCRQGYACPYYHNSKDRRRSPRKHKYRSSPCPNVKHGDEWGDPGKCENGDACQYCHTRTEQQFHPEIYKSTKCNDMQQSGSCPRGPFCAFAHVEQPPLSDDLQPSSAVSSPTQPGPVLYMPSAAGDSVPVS
Notes: RNA with constant flanks, vertebrate orthologous sites, ends assumed
All sequences stand within: GGGAGUUCUACAGUCCGACGAUC … CAACAGAGGAUUGAGCAUCA
Oligonucleotide	bound/input enrichment [ratio]
UGUGCUUACGCUCUUCUAGGGAAGAGAUGAAUUGGGGAGAACUGUCCCCUUUUUAUAGAUCAGUUUGUUUCUAAAUUAUGACCAAAAAAUAUUUUGCUAUUUCUUUCUUUAUAUAUGGAC	0.358
UCAUAAUCACUCUAAUCGUAAUCUGACAAGUGUAACAUUGUGUAGCCUUUUUGUAUAAAUUAGACAAAUAGAAAUGGUCCAAUUAGUUUCCUUUUUAAUAUGCUUAAAAUAAGCAGGUGG	2.99
CACAUCUGGUGAUAUUUGGCCUGGCCUUUCAGCUUAUGAUAAUAGUCCUAGGUCACCUCAUAGUCCUUCACCGAUUGCUACGCCACCUAGUCAGAGUUCAUCUUGCUCUGAUGCGCCCAU	0.635
GAACUCUUACAGUCUUAGAUGUUCUAAAAUACAUAAAUAUAUCUGAAUUGUAAGAGUUGUUAGCACAGGUUUUUUGUUUUGUUUUGUUUUUGAAGCACUUGUUUUGGGUACAAGGCAUUU	0.438
GUCAUCUGACUGGAUGAAGACUGUUCCAAGUUACAACCAAACAAGUAGCUCCGUGGACUUUAGGAAUUACAUGAUGAGAGAUGAGAAUCUGGAACCACUGCCCAAAAACUGGGAAAUGGC	0.491
AUUUAGAAUGUAUUUAGUUAUAGUUAAUGAUCUCAUUCCCGUGUUCCUUUUUCAUUAACGUAGCUUUAAUAGUAUGAAUAAAUAGGAGGAUUGCGCCAGUAGGCAUUGUUACUGAAUCGG	1.04
GAAGAUGGUGGUUGUACAUUAUUCAUUUAGAAAAUAUAAAAAUUCAUUUUGUUUUGAAGCUAGGCAUUAAACUGGAAUAGCAGUUUUACCCCUGAGAAUGGGGCCCUUCCCUUGACAUUC	3.75
UAUUUAAAAUAUAUUUAGUUGUAUUUAGUGACUUCAUUUCUAGUUCCUUGUUCAUUAAAGUAGCUCAUUUCUAUUAUUGCCUUUUUUGAGGAUUGGAACAAAUUGAAGGUUUGUGCAGUA	0.823

Some of these lines once more (block 1):
Variant	relative binding score [%]
S80H	15.2
I57G	-1.5
E14W	5.67
Y53M	5.06
C72G	32.9
T173G	15.8
A175I	57.1
